Assay results collected from several papers.
Each line is one published result; not all experiments were run side by side. Values joined by “and” are separate records of one study, mostly repeats; a detail may differ.
Target: Mitotic checkpoint serine/threonine-protein kinase BUB1 (BUB1, Homo sapiens, UniProt O43683)

Compound	assay	test system	setting	scale	quantity	value
Nc1ncc2c(n1)-c1c([nH]c3ccc(C4=CCOCC4)cc13)CCC2	binding, competition with immobilised ligand		1 µM		remaining binding	71%
COc1c(Cl)cccc1Nc1c(-c2ccncc2C#C[C@@]2(C)CCCN2C(=O)/C=C/CN(C)C)[nH]c2c1C(=O)NCC2	binding, competition with immobilised ligand		3 µM		remaining binding	3.3%
C=CC(=O)N1CCc2ccc(-n3c(=O)ccc4cnc5ccc(-c6cnn(C)c6)cc5c43)cc21	KINOMEscan		1 µM	reference: DMSO control	remaining binding	100%
CNC1C[S+]2CC[S+]3CC[S+](C1)[Ru-4]321([N]=C=S)[n]2c3ccc(OC)cc3c3c4c(c5cc(F)c[n+]1c5c32)C(=O)NC4=O (stereo not shown)	KinomeScan		0.1 µM	reference: untreated	remaining binding	88%
COc1cc(Nc2nccc(-c3cnn4nc(OC)ccc34)n2)cc(C(F)(F)F)c1	binding, competition with immobilised ligand		1 µM		remaining binding	90%
CC(C)=CC1OC(C)(C)C2C=C3C(=O)C(Cl)=CC(O)C3C3C(O)C4OC4C(=O)C132 (stereo not shown)	cell-free assay, competition with immobilised ligand		10 µM		remaining binding	64%
C=CC(=O)N1CCCC(n2c(=O)c3ncccc3n(Cc3ccc(Oc4ccccc4)cc3)c2=O)C1 (stereo not shown)	cell-free assay, competition with immobilised ligand		1 µM		remaining binding	66%
N[C@H]1CC[C@H](Nc2nccc(-c3cccnc3Oc3ccc(NC(=O)NC4CC4)c4ccccc34)n2)CC1	kinobead competition pulldown	HEK293/HCT116 lysate mixture	10 µM, 1 h, 4 °C	lower = stronger competition	log2 LFQ intensity	20.3 and 17.3 and 19.1 and 19.3
COc1cc(Nc2nc(C)cc(-c3cnn4nc(OC)ccc34)n2)cc(C(F)(F)F)c1	inhibitor		1 µM	reference: control	remaining activity	67%
CNC(=O)C1CCN(c2cc(C)c(F)cc2NC(=O)c2ccc(-c3cc(O)ccc3C)c(C)c2)CC1	binding, competition with immobilised ligand		1 µM		remaining binding	90%
CCN1CCN(Cc2ccc(C(=O)Nc3ccc(C)c(NCc4cnc5[nH]ccc5c4OC)c3)cc2C(F)(F)F)CC1	binding, competition with immobilised ligand		1 µM		remaining binding	100%
CCn1cc(C(=O)O)c(=O)c2c(N)c(F)c(NC3CCCCC3)cc21	kinase activity		0.1 µM, with: ATP at Km		inhibition	-10.3%
Cc1cnc2nc1Nc1cccc(c1)COC/C=C/COCc1cc(ccc1OCCN1CCOCC1)N2	binding		0.1 µM		remaining binding	99%

A few entries again:
Compound	assay	test system	setting	scale	quantity	value
CCN1CCN(Cc2ccc(C(=O)Nc3ccc(C)c(NCc4cnc5[nH]ccc5c4OC)c3)cc2C(F)(F)F)CC1	binding, competition with immobilised ligand		1 µM		remaining binding	100%
CCn1cc(C(=O)O)c(=O)c2c(N)c(F)c(NC3CCCCC3)cc21	kinase activity		0.1 µM, with: ATP at Km		inhibition	-10.3%
